Literature values, collected from citations in different studies.
Protocols differ between the studies behind these lines. Values joined by “and” are separate records of one study, mostly repeats; a detail may differ. ± gives the spread as reported.
Chain of UniProt P9WPP7 (whole entry, looked up): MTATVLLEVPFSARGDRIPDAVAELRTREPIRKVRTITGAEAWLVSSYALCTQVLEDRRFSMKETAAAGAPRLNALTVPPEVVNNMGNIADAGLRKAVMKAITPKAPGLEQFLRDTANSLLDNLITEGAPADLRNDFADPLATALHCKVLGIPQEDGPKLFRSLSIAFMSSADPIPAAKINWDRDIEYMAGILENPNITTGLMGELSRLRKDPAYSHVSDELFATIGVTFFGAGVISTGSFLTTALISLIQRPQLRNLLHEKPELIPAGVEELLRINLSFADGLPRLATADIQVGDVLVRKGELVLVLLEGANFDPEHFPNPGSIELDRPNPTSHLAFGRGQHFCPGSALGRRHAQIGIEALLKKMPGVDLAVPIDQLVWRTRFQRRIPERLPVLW
Chain of UniProt P0DPI0 (whole entry, looked up): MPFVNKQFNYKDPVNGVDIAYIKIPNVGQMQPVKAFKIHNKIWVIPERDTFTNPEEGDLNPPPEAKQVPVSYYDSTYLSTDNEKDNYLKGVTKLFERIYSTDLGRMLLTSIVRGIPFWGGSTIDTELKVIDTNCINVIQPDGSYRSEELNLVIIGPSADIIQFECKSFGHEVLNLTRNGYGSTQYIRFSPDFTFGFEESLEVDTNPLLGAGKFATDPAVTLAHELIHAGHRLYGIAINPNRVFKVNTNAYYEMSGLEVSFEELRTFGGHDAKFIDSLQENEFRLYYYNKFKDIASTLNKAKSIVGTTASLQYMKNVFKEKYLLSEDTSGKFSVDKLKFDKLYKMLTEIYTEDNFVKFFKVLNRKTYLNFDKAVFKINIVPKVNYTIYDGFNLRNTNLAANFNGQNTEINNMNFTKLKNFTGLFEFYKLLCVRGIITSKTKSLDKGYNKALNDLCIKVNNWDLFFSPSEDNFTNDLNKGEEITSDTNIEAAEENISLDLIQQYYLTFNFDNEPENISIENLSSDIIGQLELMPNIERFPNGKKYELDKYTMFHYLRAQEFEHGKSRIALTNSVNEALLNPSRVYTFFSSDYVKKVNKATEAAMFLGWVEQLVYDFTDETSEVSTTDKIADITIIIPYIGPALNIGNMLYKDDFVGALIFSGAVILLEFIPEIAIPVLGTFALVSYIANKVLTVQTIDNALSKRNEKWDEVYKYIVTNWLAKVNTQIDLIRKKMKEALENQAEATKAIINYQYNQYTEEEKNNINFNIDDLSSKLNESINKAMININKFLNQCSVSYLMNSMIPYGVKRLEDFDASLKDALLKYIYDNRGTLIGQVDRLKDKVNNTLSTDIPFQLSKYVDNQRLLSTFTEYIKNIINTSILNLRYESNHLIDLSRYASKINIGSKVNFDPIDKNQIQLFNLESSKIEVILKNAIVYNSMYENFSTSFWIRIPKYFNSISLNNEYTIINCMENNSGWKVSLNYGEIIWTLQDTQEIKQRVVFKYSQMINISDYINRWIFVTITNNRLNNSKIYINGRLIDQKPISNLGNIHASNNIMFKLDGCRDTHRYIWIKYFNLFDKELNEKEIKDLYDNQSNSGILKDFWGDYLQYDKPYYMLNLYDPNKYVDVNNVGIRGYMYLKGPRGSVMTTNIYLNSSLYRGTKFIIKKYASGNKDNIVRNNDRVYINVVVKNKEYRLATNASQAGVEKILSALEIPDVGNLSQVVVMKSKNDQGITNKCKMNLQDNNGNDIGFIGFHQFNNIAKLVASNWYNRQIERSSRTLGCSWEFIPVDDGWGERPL

CNC(=O)C1CC(n2c(-c3cncc4ccccc34)nc3cccc(C(=O)NC(C)c4ccccc4)c32)C1 (centres unmarked) — Ki (SARS-CoV-2 main protease; inhibitor): 571 nM
c1cn(Cc2ccc(-c3ccc4c(c3)OCO4)cc2)cn1 — Kd (cyp121 (Mycobacterium tuberculosis, UniProt P9WPP7); binding): 5000 nM and 5400 nM
CNC(=O)C1CC(n2c(-c3cncc4ccccc34)nc3cccc(C(=O)NC(C)c4ccc(C(F)(F)F)cc4)c32)C1 (centres unmarked) — Ki (SARS-CoV-2 main protease; inhibitor): 46 nM
Oc1cc(O)c2c(c1)OC(c1ccc(O)c(O)c1)C(O)C2c1c(O)cc(O)c2c1OC(c1ccc(O)c(O)c1)C(O)C2 (centres unmarked) — IC50 (Replicase polyprotein 1ab, papain-like protease (rep, Severe acute respiratory syndrome coronavirus 2, UniProt P0DTD1); enzyme activity; added: Z-RLRGG-AMC substrate): 2400 ± 300 nM
COc1c(O)cc2oc3cc(O)c(CC=C(C)C)c(O)c3c(=O)c2c1CC=C(C)C — IC50 (Clostridium perfringens neuraminidase; enzyme activity, inhibitor): 12200 ± 1200 nM
C=C(C)[C@@H]1CC[C@]2(COC(=O)CCC(=O)O)CCC3C4CCC5C(CC[C@H](O)C5(C)C)C4CCC3C12 (some centres unmarked) — IC50 (Botulinum neurotoxin type A, light chain (Clostridium botulinum, UniProt P0DPI0); inhibitor): 1500 nM
O=C(c1cc(=O)[nH]c(=O)[nH]1)N1CCC(c2cc(Cl)c(Cl)c(Cl)c2)CC1 — IC50 (Replicase polyprotein 1ab, main protease (rep, Severe acute respiratory syndrome coronavirus 2, UniProt P0DTD1); inhibitor): 290 nM
O=C(Oc1cccnc1)c1ccco1 — IC50 (Replicase polyprotein 1ab, main protease (rep, Severe acute respiratory syndrome-related coronavirus, UniProt P0C6X7)): 7900 nM
O=C(/C=C/c1ccc(O)c2oc(-c3ccc(O)c(O)c3)cc12)O[C@H](Cc1ccc(O)c(O)c1)C(=O)O — Kd (SARS-CoV spike S2; binding): 405000 nM
COc1cccc2[nH]c(C(=O)N[C@@H](CC(C)C)C(=O)N[C@@H](C[C@@H]3CCNC3=O)C(=O)c3nc4ccccc4s3)cc12 — Ki (SARS-CoV-2 main protease; reversible covalent inhibitor): 17.6 nM
C[n+]1cn(C2OC(COP(=O)(O)OP(=O)(O)OP(=O)(O)OCC3OC(n4cnc5c(=O)[nH]c(N)nc54)C(O)C3O)C(O)C2O)c2nc(N)[nH]c(=O)c21 (centres unmarked) — enzyme activity (vaccinia virus D10 MBP fusion; inhibitor; concentration not given, single turnover): inhibited

Repeated from above:
Oc1cc(O)c2c(c1)OC(c1ccc(O)c(O)c1)C(O)C2c1c(O)cc(O)c2c1OC(c1ccc(O)c(O)c1)C(O)C2 (centres unmarked) — IC50 (Replicase polyprotein 1ab, papain-like protease (rep, Severe acute respiratory syndrome coronavirus 2, UniProt P0DTD1); enzyme activity; added: Z-RLRGG-AMC substrate): 2400 ± 300 nM
